Results pooled from the literature.
Each numbered part is a random draw from the data of one study; scales do not carry over between parts. Substitutions count along the parent as printed.

Set 1 — method: RNA Bind-n-Seq; form: RNA; matrix: in vitro; tested at: 365 nM; reference: no-protein control; reading: higher = stronger binding
Target: RNA binding protein fox-1 homolog 2, RRM domain, GST-SBP tag (RBFOX2, Homo sapiens, UniProt O43251-10, residues 100-194)
Notes: natural RNA segment, single round, ends assumed
Constant ends, left off below: GGGAGUUCUACAGUCCGACGAUC … UGGAAUUCUCGGGUGCCAA
Construct (chain): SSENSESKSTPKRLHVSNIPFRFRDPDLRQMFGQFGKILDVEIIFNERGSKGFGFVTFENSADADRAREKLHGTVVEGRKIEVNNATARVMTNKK
Sequence | RBNS enrichment (R)
AACCCCCUAAGCCAGCAGGAGCAGGGUAUGCAGAGGCUUUGCCUCUGCUGGCUUAGGGUGAGAAGUACCUCACAAUGGAUGUGAACAUUGGACAGAUUUUAGGAGCAUGA | 2.3
AUUUCAGACAUCUGCAUUUUUAUUGAACAGUUGACUGUAUCUGACCCAUCAUACUACUAUACUUCUGGGUUGAACAGAAUUAUUUAUGCAGAAUAAUUCAAUUGAAUAUC | 0.568
UCCCUGCUCCCCCAGUUUUUUUUCUCUUUGUUAACAAAUGUGUCUGAGUCUUGGAAAACACCCCAAACCCGGAAAUGUGUGGGAAAAAGAAAACAAAAACUUUCCAAAUU | 0.519
GGGGACCCCUGGGCCUGGGGUGCCCUCCUGAUGUCCUCGCCCUGUAUUUCUCCAUCUCCAGUUCUGGACAGUGCAGGUUGCCAAGAAAAGGGACCUAGUUUAGCCAUUGC | 0.865
CCAUGACAGCUUGGUCAGUGUGCCUAGGCAGGGCACAUUGCCUGGGCAUGUGUAGAGUGAGUGCCCCUGUGAGCUGCUAGGCAAGCAGAGUCUGGCUCUGAGGUGAUGUC | 1.05
AUUCAAAGUCAGAAAAACAUCAAGAACUUCUUUGAUGCAUAGGGUGUAUCAGCACUCAGCUCCCACAGAAGUCAAGUCACAAAAUAUAGUGUCAGUUAACUAUAAGGAAG | 0.301
GCAUUAUAUAUACCUAUCACUGAUUUAAUGUUCCAAUGUAGAUAGACACUAUUAAAUAAGCAGUAAUUCCUUGAAAGGAGUACCUGUACCAAGUCCUAGGAAAUAAUGCU | 0.391
AUAAACUUUUAAAAAGCAGGCACUAAUAUAUAUUUCUUCCAGCCUUUGAUUACAAAUUUGUCCUUGCACAUGUUAAGAUGAAUUAUCUCCUAAAAAUAUCAUUGUUCUUG | 0.431

Set 2 — method: universal PBM; form: double-stranded DNA, one strand shown; matrix: in vitro; tested at: 600 nM; reading: higher = stronger binding
Target: Sal-like protein 4, full length isoform A (SALL4, Homo sapiens, UniProt Q9UJQ4, residues 1-1053)
Sequence of UniProt Q9UJQ4 (whole entry, looked up): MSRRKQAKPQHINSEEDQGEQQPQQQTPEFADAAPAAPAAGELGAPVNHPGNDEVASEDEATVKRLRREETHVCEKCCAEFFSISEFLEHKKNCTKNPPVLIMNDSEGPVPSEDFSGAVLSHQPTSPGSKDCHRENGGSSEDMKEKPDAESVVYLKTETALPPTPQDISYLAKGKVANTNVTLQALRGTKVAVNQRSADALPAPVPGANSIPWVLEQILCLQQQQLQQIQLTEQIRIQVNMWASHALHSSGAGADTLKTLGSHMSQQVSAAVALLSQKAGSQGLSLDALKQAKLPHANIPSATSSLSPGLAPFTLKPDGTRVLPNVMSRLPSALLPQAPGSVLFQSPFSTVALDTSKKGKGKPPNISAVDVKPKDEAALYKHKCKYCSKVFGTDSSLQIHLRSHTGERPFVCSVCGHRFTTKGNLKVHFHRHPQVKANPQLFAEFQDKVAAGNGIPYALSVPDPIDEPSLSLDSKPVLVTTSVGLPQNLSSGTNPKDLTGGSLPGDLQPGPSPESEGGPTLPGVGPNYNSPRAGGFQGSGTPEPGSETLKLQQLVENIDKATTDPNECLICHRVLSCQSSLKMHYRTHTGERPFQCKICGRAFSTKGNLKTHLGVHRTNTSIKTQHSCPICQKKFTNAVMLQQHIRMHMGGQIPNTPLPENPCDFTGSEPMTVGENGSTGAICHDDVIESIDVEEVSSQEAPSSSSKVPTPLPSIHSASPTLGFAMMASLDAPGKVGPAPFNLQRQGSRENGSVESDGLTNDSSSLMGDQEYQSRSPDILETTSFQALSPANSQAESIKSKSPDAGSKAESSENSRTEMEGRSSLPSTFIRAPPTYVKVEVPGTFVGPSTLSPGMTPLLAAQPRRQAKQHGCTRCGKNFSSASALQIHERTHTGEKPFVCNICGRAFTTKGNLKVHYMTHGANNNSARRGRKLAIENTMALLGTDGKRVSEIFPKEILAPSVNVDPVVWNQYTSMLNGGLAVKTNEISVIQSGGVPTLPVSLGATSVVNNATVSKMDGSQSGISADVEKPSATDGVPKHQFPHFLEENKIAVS
Notes: 8-mer, flanks averaged, mean of replicates
Sequence | E-score
CATCATGA | 0.0635
AAGATGAG | 0.00558
AGGTCCAG | -0.179
CACAGACC | -0.243
CTATTCGC | 0.0803
ATATCTCC | 0.189
CCCTACCA | -0.196
AAAATGAT | 0.348
ACCGTAGC | -0.227
ACCATAGG | -0.0286
AATTCGTG | 0.0894
GGTATACA | 0.0953
CACAAGGC | -0.145
CCAGGCAC | -0.0188
ATCGACTG | -0.133
TACCCGTA | -0.0751

Set 3 — target: MAFK, bZIP domain (human); method: DHFR protein complementation; matrix: yeast; reference: wild-type JUN-FOS pair; reading: higher = stronger binding
Notes: single substitutions, most at no-binding floor
Starting sequence: JUN, bZIP domain (human); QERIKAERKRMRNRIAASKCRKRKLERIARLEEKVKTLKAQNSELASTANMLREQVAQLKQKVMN; partner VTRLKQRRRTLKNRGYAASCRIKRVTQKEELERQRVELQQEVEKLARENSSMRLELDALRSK
Variant | binding fitness [natural log]
S47E | -1.13
E54I | -1.48
E54L | -1.43
E32T | -1.49
Q41P | -1.55
M51K | -1.48
R53N | -1.52
M51G | -1.45
I28W | -1.58
R30N | -1.58
Q41I | -1.4
V56C | -1.51
R53T | -1.48
A57M | -1.55
S47P | -1.51
S47V | -1.45
T37Q | -1.34
L38I | -1.39
K39L | -1.52
L45H | -1.48
K39V | -1.42
V35I | -1.5
K34P | -1.48
V35C | -1.57
Q55K | -1.48

Set 4 — method: protein-binding microarray; form: double-stranded DNA, one strand shown; matrix: in vitro; tested at: 250 nM; notes: 60-bp whole probe; together with: salmon DNA 0.4 mg/ml; reference: random background probes; reading: higher = stronger binding; constant ends, left off below: GCCTAGCAC … GTCTTGATTCGCTTGACGCTGCTG
Target: Interferon regulatory factor 5, full length, phosphomimetic (IRF5, Homo sapiens, UniProt Q13568-2, residues 1-514, K96S/S451D/S453D/S456D/S462D)
Sequence | log fluorescence [z-score]
TTAGATATCAGTGTCGATTAGTGCTAG | 1.51
GACGGTATCCTCCTCCTGACGTGCTAG | -0.205
ATGTGTTTAAGAATGTTTTTGTGCTAG | 0.552
GACGGTTTCGGTACCGGGACGTGCTAG | 9.4
TGAGGACTGGACACTGGGTTAGTGCTA | -0.391
GACGGTATCCTTCTCCTGCCGTGCTAG | 0.19
TTAGGTTTCGACTATGGGTTAGTGCTA | 7.42
GACGCTTTCGGGTATCGAGACGTGCTA | 9.04
TCACAACTCTGTTTTCGACTGTGCTAG | 2.38
CTTGCTTGGTGTCTCTGGCCGTGCTAG | -0.598
GACGGTCTCGTTTTCCTGACGTGCTAG | 0.255
TTAGGTCTCCTACTGCTTTTGTGCTAG | -0.219
GACGGTTTCGGTATCGGGCCGTGCTAG | 9.68
CTCATTCTCTGCTTGCGTCTGTGCTAG | 0.384
TTAGGCCTGCTTCTCCTTTAGTGCTAG | -0.324
GACGGGTTCGGTATCGGGACGTGCTAG | 0.821
GAAGAACTGGGGTATCGAGACGTGCTA | 0.417
TTAGGTCTCCTTATCCTATAGTGCTAG | -0.145
TTAGATATCAGTATCAATTAGTGCTAG | 2.73

Set 5 — method: protein binding microarray; form: double-stranded DNA, one strand shown; matrix: in vitro; tested at: not given; reference: not given; reading: higher = stronger binding
Target: Histone acetyltransferase KAT6A, winged helix 2, GST fusion (KAT6A, Homo sapiens, UniProt Q92794, residues 85-181)
Notes: 8-mer, flanks averaged, mean of 2 arrays, mostly near background
Construct (chain): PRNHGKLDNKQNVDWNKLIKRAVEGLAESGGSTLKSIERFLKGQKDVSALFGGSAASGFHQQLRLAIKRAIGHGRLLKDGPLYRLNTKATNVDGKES
Sequence | E-score
GACACATC | -0.0391
CCCCAGAG | 0.116
ATTAAGAA | 0.0657
TAGTATCA | 0.0793
AAACGGAC | -0.0942
ACGCTTTC | -0.133
CCGAGAGC | 0.0761
GCGTTGAA | 0.0285
CACGCAAG | 0.172
CATGATGG | -0.168
ATCCCCCC | -0.283
GCACCGCC | 0.189
CCTACATA | -0.118
AACCACAG | -0.119
CGGCTCCC | 0.0486
TCCCGAAA | -0.113
ACGGAAAT | -0.0104

Some of these lines once more (set 3):
Variant | binding fitness [natural log]
I28W | -1.58
R30N | -1.58
Q41I | -1.4
V56C | -1.51
R53T | -1.48
A57M | -1.55
S47P | -1.51
S47V | -1.45
T37Q | -1.34
L38I | -1.39
K39L | -1.52
